Published values from different studies.
Numbered parts are unrelated; each lists some results of a single study.

Sample 1
Target: Sal-like protein 4, full length isoform B (SALL4, Homo sapiens, UniProt Q9UJQ4-2, residues 1-616)
Method: universal PBM
Molecule type: double-stranded DNA, one strand shown
Medium: in vitro
Concentration: not given
Setting: 8-mer, flanks averaged, mean of replicates
Direction: higher = stronger binding
Endpoint: E-score
Strand = ATGTACAT; value = 0.326
Strand = AATTTCCC; value = 0.088
Strand = CGAAGGTC; value = -0.139
Strand = AATGCAGC; value = -0.148
Strand = CGCACGCC; value = -0.275
Strand = CGCCTCTC; value = -0.298
Strand = CCTAGTTA; value = 0.0894
Strand = AGGACCCG; value = -0.4
Strand = TGAAACCA; value = -0.00039

Sample 2
Target: Interferon regulatory factor 7, full length, phosphomimetic (IRF7, Homo sapiens, UniProt Q92985, residues 1-503, S471D/S472D/S475D/S476D/S477D/S483D/S484D/S487D)
Chain of UniProt Q92985 (whole entry, unmodified, looked up): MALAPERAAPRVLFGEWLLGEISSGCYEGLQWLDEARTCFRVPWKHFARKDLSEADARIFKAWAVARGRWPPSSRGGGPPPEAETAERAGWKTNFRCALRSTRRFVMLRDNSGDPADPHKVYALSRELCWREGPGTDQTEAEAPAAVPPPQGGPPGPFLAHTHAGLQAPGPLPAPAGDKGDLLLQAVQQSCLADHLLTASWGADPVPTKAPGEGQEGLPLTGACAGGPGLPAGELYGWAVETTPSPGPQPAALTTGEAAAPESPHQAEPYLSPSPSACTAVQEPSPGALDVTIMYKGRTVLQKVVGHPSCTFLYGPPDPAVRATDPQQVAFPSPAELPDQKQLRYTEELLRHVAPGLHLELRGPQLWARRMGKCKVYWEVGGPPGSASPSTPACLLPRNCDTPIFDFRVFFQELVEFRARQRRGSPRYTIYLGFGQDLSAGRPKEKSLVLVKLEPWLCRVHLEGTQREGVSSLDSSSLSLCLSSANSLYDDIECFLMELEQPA
Method: protein-binding microarray
Molecule type: double-stranded DNA, one strand shown
Medium: in vitro
Concentration: 2200 nM top
Setting: 60-bp whole probe
With: salmon DNA 0.4 mg/ml
Relative to: random background probes
Direction: higher = stronger binding
Endpoint: fitted relative affinity
Shared flanks, not repeated: GCCTAGCAC … GTCTTGATTCGCTTGACGCTGCTG
Strand = GACGAACCGGGGTATCGAGACGTGCTA; value = -0.0431 z-score
Strand = GACCATCTCAGACTGGAGACGTGCTAG; value = 0.0573 z-score
Strand = GACGAACTTAGTATCGAGACGTGCTAG; value = -0.0835 z-score
Strand = GACGGGCTCGGTCTCGGGACGTGCTAG; value = -1 z-score
Strand = CACCGTCTTATTAAAAAACAGTGCTAG; value = 0.732 z-score

Sample 3
Target: Centromere-binding protein 1, full length, N-terminal tag (CBF1, Saccharomyces cerevisiae, UniProt P17106, residues 1-351)
Chain of UniProt P17106 (whole entry, looked up): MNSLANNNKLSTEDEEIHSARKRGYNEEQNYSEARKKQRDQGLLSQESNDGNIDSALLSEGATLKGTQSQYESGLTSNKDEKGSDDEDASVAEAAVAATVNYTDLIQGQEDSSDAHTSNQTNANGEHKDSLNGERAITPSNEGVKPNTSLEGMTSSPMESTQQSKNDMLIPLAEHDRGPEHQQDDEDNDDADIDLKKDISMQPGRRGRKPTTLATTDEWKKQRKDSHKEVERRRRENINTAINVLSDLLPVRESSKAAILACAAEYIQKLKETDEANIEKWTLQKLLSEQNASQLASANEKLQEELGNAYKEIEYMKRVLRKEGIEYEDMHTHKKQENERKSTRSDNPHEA
Method: protein-binding microarray
Molecule type: double-stranded DNA, one strand shown
Medium: in vitro
Concentration: 0.8 µM
Setting: whole 60-bp probe, no competitor
Direction: higher = stronger binding
Endpoint: fluorescence intensity
Shared flanks, not repeated: … GTCTTGATTCGCTTGACGCTGCTG
Strand = CCTAACTACTATATTCACGACACATAGCTTCGTACA; value = 544 a.u.
Strand = TGTACGAAGCTATACGTGAATATTATAGTAGTTAGG; value = 556 a.u.
Strand = CTAAATGCATGCAGAAACATCACGAACAGAGTATTC; value = 548 a.u.
Strand = CTAGAAAATGGACGTGACGAATCAATAAAAGAATTC; value = 729 a.u.
Strand = TGTACGAAGCTATAGCACGGTGTTATAGTAGTTAGG; value = 528 a.u.
Strand = TGTACGAAGCTATCACATGTGAATATAGTAGTTAGG; value = 1940 a.u.
Strand = CTACTCTGTACACCTCACGCTAAATAGCTGCTATTC; value = 508 a.u.
Strand = GAATAAGCAGATGCTAACATCATGAACAAAAAATAG; value = 564 a.u.

Other studies, line by line
Molecule = PhoQ, residues 284 288 289 292 302 303 TTCLQL; target = PhoP, residues 12 14 15 18 19 NQGLL (Escherichia coli, UniProt P23836); test = Sort-seq, refers to: YFP reporter; system = E. coli; setting = PhoQ-PhoP variant library, with: 10 µM Mg2+; how to read = relative to: high Mg2+ state, higher = stronger signaling; endpoint = fold induction; value = 2.03

For quick reference, copied from above (sample 3):
Strand = TGTACGAAGCTATACGTGAATATTATAGTAGTTAGG; value = 556 a.u.
Strand = CTAAATGCATGCAGAAACATCACGAACAGAGTATTC; value = 548 a.u.
Strand = CTAGAAAATGGACGTGACGAATCAATAAAAGAATTC; value = 729 a.u.
